# Experimental data from different studies.
# Each line is one published result; not all experiments were run side by side. “And” joins repeats or separate records; there may be more than shown. ± marks the error that the study gave. No end group written: not given here.
# B1: human DHRS2; sequence looked up; chain SSTGIDRKGVLANRVAVVTGSTSGIGFAIARRLARDGAHVVISSRKQQNVDRAMAKLQGEGLSVAGIVCHVGKAEDREQLVAKALEHCGGVDFLVCSAGVNPLVGSTLGTSEQIWDKILSVNVKSPALLLSQLLPYMENRRGAVILVSSIAAYNPVVALGVYNVSKTALLGLTRTLALELAPKDIRVNCVVPGIIKTDFSKVFHGNESLWKNFKEHHQLQRIGESEDCAGIVSFLCSPDASYVNGENIAVAGYSTRL
# B2: bicyclic; chain AATCHCRRSCYSTEYSYGTCTVMGINHRFCCL (also: bicyclic or more (positions not given here))
# Chain of UniProt Q12809 (whole entry, looked up): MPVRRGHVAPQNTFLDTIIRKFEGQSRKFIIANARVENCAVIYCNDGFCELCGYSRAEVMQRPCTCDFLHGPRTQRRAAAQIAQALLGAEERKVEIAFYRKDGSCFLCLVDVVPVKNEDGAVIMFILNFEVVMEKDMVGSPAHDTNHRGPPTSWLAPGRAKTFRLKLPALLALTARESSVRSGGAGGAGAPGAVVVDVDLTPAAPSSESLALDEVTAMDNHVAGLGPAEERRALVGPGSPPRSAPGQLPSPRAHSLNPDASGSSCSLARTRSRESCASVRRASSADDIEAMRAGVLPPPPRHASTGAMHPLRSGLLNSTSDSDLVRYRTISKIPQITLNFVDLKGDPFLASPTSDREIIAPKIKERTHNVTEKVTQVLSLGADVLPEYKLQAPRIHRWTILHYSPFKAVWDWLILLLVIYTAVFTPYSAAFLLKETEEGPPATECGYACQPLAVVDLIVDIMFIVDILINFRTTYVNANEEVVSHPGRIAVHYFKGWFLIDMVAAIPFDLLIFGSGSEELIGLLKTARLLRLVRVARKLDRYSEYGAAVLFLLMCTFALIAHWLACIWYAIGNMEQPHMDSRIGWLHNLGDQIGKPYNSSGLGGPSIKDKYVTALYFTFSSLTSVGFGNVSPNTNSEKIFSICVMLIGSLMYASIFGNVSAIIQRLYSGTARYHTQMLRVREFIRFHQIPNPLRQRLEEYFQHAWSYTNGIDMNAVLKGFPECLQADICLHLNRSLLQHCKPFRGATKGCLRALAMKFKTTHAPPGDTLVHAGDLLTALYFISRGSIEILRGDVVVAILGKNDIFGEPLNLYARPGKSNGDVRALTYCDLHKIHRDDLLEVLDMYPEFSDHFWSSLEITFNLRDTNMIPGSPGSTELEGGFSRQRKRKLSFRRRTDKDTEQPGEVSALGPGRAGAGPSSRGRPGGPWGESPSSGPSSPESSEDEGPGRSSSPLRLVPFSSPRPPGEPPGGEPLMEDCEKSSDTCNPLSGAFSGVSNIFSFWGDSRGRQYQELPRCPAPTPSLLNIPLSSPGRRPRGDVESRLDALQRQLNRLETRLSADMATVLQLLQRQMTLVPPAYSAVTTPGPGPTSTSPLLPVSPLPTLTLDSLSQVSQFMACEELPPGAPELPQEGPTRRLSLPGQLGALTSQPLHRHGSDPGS
Substance,tested on,assay,test system,setting,how to read,quantity,result
caspofungin,,,"adult ICU patients, mITT, serum","dose not given, day 30",,bilirubin,16.9 µmol/L
Polymyxin B,,LC-MS,"Sprague-Dawley rat, right hippocampus homogenate","intracerebroventricular, 0.75 mg/kg, 1 h",,brain concentration,3.23 mg/L and 3.47 mg/L and 0.29 mg/L and 4.17 mg/L and 1.75 mg/L and 2.55 mg/L and 4.44 mg/L and 0.37 mg/L
Teicoplanin,,refers to: stability,human serum,"time not given, high QC, 3 freeze-thaw cycles",,recovery,97.5%
protopine,,,placenta perfusion,360 min,relative to: initial amount,amount in fetal perfusate,14 ± 3.7%
Fluorescein isothiocyanate,,confocal imaging,cargo-loaded PSP-2 coacervates in Opti-MEM,"concentration not given, with: cargo 5 µM",,saturation concentration,10 to 25 µM
enterolactone sulfate,,,"human, plasma","dose not given, mean",,plasma concentration,501 nM
B1 (human DHRS2),PP6C (human),"co-immunoprecipitation, IP-MS",CYB5R4 knockout cells,concentration not given,relative to: CYB5R4 knockout over parental,log2 fold change,-5.37
coproporphyrin III,,,"human, serum","oral, dose not given, 3 h, geometric mean, with: ezetimibe plus rifampin",,serum concentration,0.782 nM
regorafenib N-β-glucuronide,,,"Oatp1b2 knockout mice, plasma","oral, 10 mg/kg regorafenib single dose",,Cmax,179 ± 61.4 ng/mL
methyl-β-cyclodextrin,"KCNH2 (Homo sapiens, UniProt Q12809)",whole-cell patch clamp,HEK293,concentration not given,,activation curve slope,7 ± 0.5
coproporphyrin I,,,"human, serum","20 mg ezetimibe, ezetimibe alone",,Tmax,≤ 2 h
B2,,sedimentation velocity ultracentrifugation,10 mM sodium phosphate,"100 µM, pH 7.4, 20 °C",,molecular mass,4.63 kDa
C-peptide,,,prepared human sample,two freeze-thaw cycles,relative to: untreated control,bias,8.8%
[177Lu]Lu-DOTA-TATE,,,PBS,"up to 24 h, 37 °C",,remaining compound,> 95%
"FNA / CGLSGLGVA-NH2 ([18F]FNA-labelled, C-amide)",,ex vivo gamma counting,"peptide, healthy mouse, liver",60 min post injection,,tissue uptake,0.55 %ID/g
colistin,Klebsiella pneumoniae,broth microdilution,clinical isolate RKI-No_19/16,,,MIC,64 mg/L
"clathrin heavy chain 2, human",PP6C (human),"co-immunoprecipitation, IP-MS",CYB5R4 knockout cells,concentration not given,relative to: CYB5R4 knockout over parental,log2 fold change,-0.6
CTOP,,RP-HPLC,HALO C18 column,"25 µM, acetic acid/acetonitrile, 25 min gradient",,retention time,7.28 min
coproporphyrin I,,,"human, plasma","concentration not given, control, endogenous",,Cmax,0.967 ± 0.044 nM
